Published values gathered from unrelated publications.
Numbers after ± are the reported error. In brackets after ≈: the same amount, converted by molar mass.

Chains of the proteins cited; added tags and fusions are not shown.
UniProt Q00961, whole entry, looked up: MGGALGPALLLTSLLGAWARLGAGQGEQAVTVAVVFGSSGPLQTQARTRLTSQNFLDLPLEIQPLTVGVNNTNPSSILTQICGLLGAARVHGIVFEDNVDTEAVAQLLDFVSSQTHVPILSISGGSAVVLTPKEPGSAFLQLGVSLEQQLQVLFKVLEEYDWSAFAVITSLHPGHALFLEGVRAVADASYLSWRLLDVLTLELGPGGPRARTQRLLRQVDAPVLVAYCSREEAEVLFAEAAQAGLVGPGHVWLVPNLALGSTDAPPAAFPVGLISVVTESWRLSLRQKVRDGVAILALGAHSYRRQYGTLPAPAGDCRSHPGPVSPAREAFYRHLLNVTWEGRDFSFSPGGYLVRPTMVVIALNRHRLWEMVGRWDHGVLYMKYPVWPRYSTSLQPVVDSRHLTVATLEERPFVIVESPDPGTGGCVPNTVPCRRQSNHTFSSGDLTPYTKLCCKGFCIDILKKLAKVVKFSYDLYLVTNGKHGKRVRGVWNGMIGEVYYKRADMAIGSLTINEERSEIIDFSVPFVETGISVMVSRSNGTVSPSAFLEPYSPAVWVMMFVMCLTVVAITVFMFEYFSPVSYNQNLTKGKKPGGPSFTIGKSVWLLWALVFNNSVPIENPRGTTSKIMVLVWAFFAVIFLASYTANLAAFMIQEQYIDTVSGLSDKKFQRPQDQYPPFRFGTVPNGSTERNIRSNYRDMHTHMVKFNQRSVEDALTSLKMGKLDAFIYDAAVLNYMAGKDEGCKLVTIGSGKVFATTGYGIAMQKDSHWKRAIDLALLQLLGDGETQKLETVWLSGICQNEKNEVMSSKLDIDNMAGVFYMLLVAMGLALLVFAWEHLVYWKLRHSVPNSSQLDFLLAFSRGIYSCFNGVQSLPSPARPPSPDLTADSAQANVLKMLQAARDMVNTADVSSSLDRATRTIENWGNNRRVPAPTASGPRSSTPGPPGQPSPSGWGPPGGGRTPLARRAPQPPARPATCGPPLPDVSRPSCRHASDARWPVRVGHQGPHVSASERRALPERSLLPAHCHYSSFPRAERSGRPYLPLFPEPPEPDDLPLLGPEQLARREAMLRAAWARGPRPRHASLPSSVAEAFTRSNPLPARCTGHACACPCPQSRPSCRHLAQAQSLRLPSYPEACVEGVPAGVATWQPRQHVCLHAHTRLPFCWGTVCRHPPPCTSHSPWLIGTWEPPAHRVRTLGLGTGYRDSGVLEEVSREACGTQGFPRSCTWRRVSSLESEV
UniProt Q9H3N8, whole entry: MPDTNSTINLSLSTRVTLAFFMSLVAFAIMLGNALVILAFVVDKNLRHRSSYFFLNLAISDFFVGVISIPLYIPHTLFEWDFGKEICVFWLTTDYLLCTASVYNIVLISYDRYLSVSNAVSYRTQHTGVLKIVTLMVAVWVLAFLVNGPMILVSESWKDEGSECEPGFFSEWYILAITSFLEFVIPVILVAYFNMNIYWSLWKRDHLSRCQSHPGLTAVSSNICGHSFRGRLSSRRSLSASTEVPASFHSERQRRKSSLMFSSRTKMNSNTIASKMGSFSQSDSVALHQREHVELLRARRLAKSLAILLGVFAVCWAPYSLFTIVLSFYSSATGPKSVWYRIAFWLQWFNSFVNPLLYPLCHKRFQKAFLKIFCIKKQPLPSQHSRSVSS

CCC(C)C1NC(=O)/C(=C(/C)O)C1=O (stereo not drawn)  apoplastic pH change (Arabidopsis thaliana; apo-pHusion imaging; elongating root cells; 10 µM): > 1 pH units
C[C@H](Cc1ccc(O)c(O)c1)[C@@H](C)Cc1ccc(O)c(O)c1  total amount permeated (human skin; 3% solution, 8 h, skin UV-treated 20 min): 28.2 ± 3.46 µg
Cc1ccc(S(=O)(=O)N(C)CC(=O)N(Cc2ccc(C3CCCCC3)cc2)c2ccc(C(=O)O)c(O)c2)cc1  phosphorylation level (NIH3T3/v-Src, PANC-1, MDA-MB-231; immunoblotting, refers to: phospho-Erk1/2; concentration not given, 24 h): no effect
CCN1CCN(Cc2ccc(NC(=O)c3ccc(C)c(/C=C/c4cnc5[nH]ccc5c4OC)c3)cc2C(F)(F)F)CC1  log2 fold change (TPM4-ALK fusion; kinase-CDC37 interaction, cell-based kinome screen; 5 µM; baseline: vehicle): 0.174
CC(C)Cc1nnc2c(C(=O)NC3c4ccccc4-c4ccccc43)cccn12  MIC (Escherichia coli; broth microdilution; D21f2tolC rpoB H526D): 8 µg/mL (≈ 20.9 µM)
O=c1ccc2nc3ccc(OCC(O)C(F)(F)F)cc3oc-2c1 (stereo not drawn)  MIC90 (Mycobacterium tuberculosis; mc2 6206 PA-824-resistant ddn mutant; 7 days): > 512 µM
CCN(CC)C(=O)Oc1ccc(C(=O)Nc2cccc3cc[nH]c23)cc1  weighted decay time constant (NMDA receptor EPSC, inhibitor, whole-cell patch clamp; CA1 pyramidal neurons, mouse, hippocampal slices; 10 µM): 118 ± 9.8 ms
COc1ccc(OC[C@H]2c3cccn3CC(=O)N2Cc2cccc(F)c2)cc1  weighted deactivation tau (Glutamate receptor ionotropic, NMDA 2C, with GluN1 (Rattus norvegicus, UniProt Q00961); ion current, whole-cell patch clamp; HEK293T cells, transfected; 10 µM, together with: 1 mM glutamate for 10 ms plus 100 µM glycine): 1120 ± 227 ms
CC#C/C(=N\OC[C@H]1COCCN1)c1ccc2ncnc(Nc3ccc(OCc4cccc(F)c4)c(Cl)c3)c2c1  ED50 (tumour growth; A498, nude mouse subcutaneous xenograft; oral, 21 days daily): 25.7 mg/kg
O=c1ccc2nc3ccc(OCC4CCCOC4)cc3oc-2c1 (stereo not drawn)  MIC90 (Mycobacterium tuberculosis; mc2 6206 PA-824-resistant ddn mutant; 7 days): 69 µM (≈ 21.5 µg/mL)
O=C(Nc1ccccc1)c1cc([N+](=O)[O-])ccc1Cl  revertants (Salmonella typhimurium; Ames plate incorporation; TA100; 1500 µg/plate, without metabolic activation): 2190 ± 30 revertants/plate
CCCCCCC1c2ccc(O)cc2Oc2cc(O)ccc21  MIC (Klebsiella spp.; together with: polymyxin B nonapeptide 25 µg/mL): 7.5 µg/mL (≈ 25.1 µM)
CCCN1CCN(c2ccc3c(c2)C2CC3CCN2C(=O)OCc2ccccc2)CC1 (stereo not drawn)  Ki (HRH4 (Homo sapiens, UniProt Q9H3N8); binding, radioligand binding): > 10 µM
CSc1nc(Cl)cc(Sc2nnc(-c3cc(C(F)(F)F)cc(C(F)(F)F)c3)[nH]2)n1  MIC (Klebsiella spp.; together with: NAB7061 4 µg/mL): 11.8 µg/mL (≈ 25 µM)
CCCCOc1ccc2nc3ccc(=O)cc-3oc2c1  MIC90 (Mycobacterium tuberculosis; mc2 6206 PA-824-resistant ddn mutant; 7 days): 4.8 µM (≈ 1.29 µg/mL)

A few entries again:
CCC(C)C1NC(=O)/C(=C(/C)O)C1=O (stereo not drawn)  apoplastic pH change (Arabidopsis thaliana; apo-pHusion imaging; elongating root cells; 10 µM): > 1 pH units
CC#C/C(=N\OC[C@H]1COCCN1)c1ccc2ncnc(Nc3ccc(OCc4cccc(F)c4)c(Cl)c3)c2c1  ED50 (tumour growth; A498, nude mouse subcutaneous xenograft; oral, 21 days daily): 25.7 mg/kg
